Assay results collected from several papers.
Every numbered part comes from another study and shows a few of its results, in no order. Changes are numbered by the printed parent chain.

Sample 1 — method: RNA Bind-n-Seq; molecule type: RNA; medium: in vitro; concentration: 100 nM; reference: input RNA pool; reading: higher = stronger binding; quantity: bound/input enrichment
Target: RING finger protein unkempt homolog, zinc fingers 1-6, SBP tag (UNK, Homo sapiens, UniProt Q9C0B0, residues 30-357)
Sequence of UniProt Q9C0B0 (30-357, looked up): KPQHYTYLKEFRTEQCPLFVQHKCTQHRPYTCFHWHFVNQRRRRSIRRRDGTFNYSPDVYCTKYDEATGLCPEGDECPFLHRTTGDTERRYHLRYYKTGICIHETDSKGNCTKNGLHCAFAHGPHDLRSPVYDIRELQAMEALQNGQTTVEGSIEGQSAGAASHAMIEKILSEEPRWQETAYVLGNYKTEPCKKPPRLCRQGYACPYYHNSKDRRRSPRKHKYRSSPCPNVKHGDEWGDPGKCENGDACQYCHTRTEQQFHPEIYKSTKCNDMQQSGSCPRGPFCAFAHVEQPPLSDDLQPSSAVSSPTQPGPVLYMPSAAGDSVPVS
Setting: RNA with constant flanks, vertebrate orthologous sites, ends assumed
All sequences stand within: GGGAGUUCUACAGUCCGACGAUC … CAACAGAGGAUUGAGCAUCA
Sequence = UGUGCUUUCUUUUUUUUCCUUUGUUUCUUCCUACCUUUAUUUCUUUUUUCUUUUUAUUUGGUAGUUGUUGUUACCACACCAUUUUACGUCUCCUUCACUGAAGGGCUAGAGUUUUAACUU; value = 1.68 ratio
Sequence = AAUAGUUUUAAGCUUGUUUGCACAGUUUUUUUUUCCCACUGGAGAUGGAAUUCAUUGCCUUAGGUCUUUUUAAUAGUGUAUUGUUAUUGUUGGGCUGGCUCUAUGCUUGAAAACCAGUUU; value = 2.29 ratio
Sequence = AAUAGUUUUAAGCUUGUUUGCACAGUCUUUUUUUUCCAUUGGAGAUGGAAUUCAUUGCCUUAGGUCUUUUUAAUAGUGUAUUGUUAUUGUUGGGCUGGCUCUAUGCUUGAAAACCAGUUU; value = 2.17 ratio
Sequence = CAUGUAGUUUGUUUUUAAUUUCAAGCAAAUCUUAUUGUACUUGAAUGUGCCCUGUUUUGUUAGCACACCUAGACUUGCUGUAACUGUACUCAUGUCCCAGUAUGUACGUUCUUUCUAUGA; value = 1.25 ratio
Sequence = UACUGGUAGGAAAUAUGUCUACCCAGAGAAGUAAUGCUCUUUAAAUAUUAUUUAAUAAUUCAGCUACAGUCUUUGCAAAGUAUUAAAUUGUAUUUCAAGCAGUUGAAUAAAUUGUAGAGU; value = 0.187 ratio
Sequence = CACAUCUGGUGAUAUUUGGCCUGGCCUUUCAGCUUAUGAUAAUAGUCCUAGAUCACCCCAUAGUCCUUCACCAAUUGCUACGCCACCUAGUCAGAGUUCAUCUUGCUCUGAUGCGCCCAU; value = 1.32 ratio
Sequence = AACAUCUGACUGGAUGAAGACCGUCCCAAGUUACAACCAAACAAACAGCUCCAUGGACUUUAGAACUUACAUGCUGAGAGACGAGAAUCUAGAACCACUGCCCCCAAACUGGGAGAUGGC; value = 0.222 ratio
Sequence = UCAGUCCCCUGGGCCGGGACAGAUUUUUUUUAACGUCUUGAAACUUAAACUCUGUGCUUGUAGGAGACUGUAACCUUUUUGUCUUUUUUUUUUUUUUAAAACAAACAACCUCCAUCUCCA; value = 0.802 ratio

Sample 2 — method: RNA Bind-n-Seq; molecule type: RNA; medium: in vitro; concentration: 365 nM; reference: no-protein control; reading: higher = stronger binding; quantity: RBNS enrichment (R)
Target: RNA binding protein fox-1 homolog 2, RRM domain, GST-SBP tag (RBFOX2, Homo sapiens, UniProt O43251-10, residues 100-194)
Setting: natural RNA segment, single round, ends assumed
All sequences stand within: GGGAGUUCUACAGUCCGACGAUC … UGGAAUUCUCGGGUGCCAA
Residues (chain): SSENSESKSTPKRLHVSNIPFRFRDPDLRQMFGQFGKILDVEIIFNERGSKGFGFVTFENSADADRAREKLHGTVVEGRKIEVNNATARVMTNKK
Sequence = CAUUCCUGGGUUUUGUGCAGUAUACAUUUUCCCACAAAAUGGUUGUAAAGAUUUAAGUUAUUUUAAUUUAUUGUGGAUCAGAAACCUAGAUGAAACUGGUCAGAAUCUGU; value = 0.436
Sequence = AUAGGGUGAUGUUCCGAAGGUGAGGAGCUUGAAACCCGUGGCGCUUUCUGCAGUUUGCAGGUUAUCAUUGUGAACUUUUUUUUUUUAAGAGUAAAAAGAAAUAUACCUAA; value = 1.6
Sequence = GAUUCAUUUUUCCUCCACUUUCCUGAGAGACCAAAAGUGUUCCUUGAGAUGUCACCAUUUGUCUUUCACAGUGACUUCCUUCCCUGAGCAAACAUUCAUGUGGCUUCGCU; value = 0.366
Sequence = CCUAAGUAAUAGGAGUCUCUCGGCUUCUUGCGUGUAGCCUCACAAGUUCUGAGAGAUGGGGAGCGGCCCCCAGCCCCCGCCCCAUCCUGUCAGGUUGGUGCGGAAGGGCU; value = 0.364
Sequence = UGGACAGAUGGAUUCUAGUGUGACUUGUGACUGUGAGGUUUCCUAUAACAUAUUUAUAAAUGUUACUCAGGUUAAAAGUAUUUAAGAAUACAGUUAACUAAUUGUAAAUA; value = 0.544
Sequence = AGUCAGUUAAUAGCAUUGGGACAGUCAUUGUAAUGGUGCUGUUACCAGUCGACACCAUUGUGUUUGACCGCGUUCCUGUCUCCUCAGCCACAUACCCUCAUCUGUGCUGU; value = 0.283
Sequence = CACAGCUUUUUCAAAUUACCAGUAAUUUGUCUUGUUUCUAAGGAGUGGGCCAGUACUAACUUAACUUGGUGUUCAGCAAGGGAUGCAGACGGAGAGCUCCCUUCUGCAGG; value = 0.651
Sequence = GGGCUAGGGUAUGUGGUUUCCUCAGUCCUAAACGUCUGUGUGGCCAACUCAGCAUCUGCUUCCAGAAGUUUCCCACUUGCAGAUGUUCAGUGCAGUUACAGACAUGCGUU; value = 0.498

Sample 3 — method: protein-binding microarray; molecule type: double-stranded DNA, one strand shown; medium: in vitro; concentration: 2540 nM top; setting: 60-bp whole probe; together with: salmon DNA 0.4 mg/ml; reference: random background probes; reading: higher = stronger binding; quantity: fitted relative affinity; all sequences stand within: GCCTAGCAC … GTCTTGATTCGCTTGACGCTGCTG
Target: Interferon regulatory factor 3, full length, phosphomimetic (IRF3, Homo sapiens, UniProt Q14653, residues 1-427, S386D/S396D/S398D/S402D/T404D/S405D)
Sequence of UniProt Q14653 (whole entry, unmodified, looked up): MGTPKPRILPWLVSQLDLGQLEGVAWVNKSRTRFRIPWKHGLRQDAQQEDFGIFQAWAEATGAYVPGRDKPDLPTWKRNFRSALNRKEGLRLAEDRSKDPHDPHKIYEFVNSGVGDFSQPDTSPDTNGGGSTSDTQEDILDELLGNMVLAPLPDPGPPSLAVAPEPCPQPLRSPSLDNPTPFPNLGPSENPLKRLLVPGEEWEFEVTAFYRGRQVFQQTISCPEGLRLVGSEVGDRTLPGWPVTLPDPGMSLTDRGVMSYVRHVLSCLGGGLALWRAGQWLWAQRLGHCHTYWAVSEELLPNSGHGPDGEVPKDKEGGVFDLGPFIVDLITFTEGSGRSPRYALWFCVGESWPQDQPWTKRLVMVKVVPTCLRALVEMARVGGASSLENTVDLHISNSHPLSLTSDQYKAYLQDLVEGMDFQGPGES
Sequence = TTAGAATTGAGTATCGATTAGTGCTAG; value = 0.211 z-score
Sequence = TTTCCCTAGAAGACGAAAGAGTGCTAG; value = 3.8 z-score
Sequence = GACCAACTGAGTTTCGAGACGTGCTAG; value = 1.36 z-score
Sequence = GCAGACTACCTATGAGTATCGTGCTAG; value = 0.133 z-score
Sequence = TGTGTTGCAGAAACGCCATGGTGCTAG; value = 1.06 z-score
Sequence = GACGGTCTCGGTTTCGGGTCGTGCTAG; value = 4.33 z-score
Sequence = TTAGGTTTCTACTATCGGTTAGTGCTA; value = 1.31 z-score
Sequence = GTGATGTGAGGGGAGAGGGAGTGCTAG; value = -0.677 z-score
Sequence = GACGGTTTCGATCTCGGGACGTGCTAG; value = 7.67 z-score
Sequence = GACGATTTCTGTTTCGAGACGTGCTAG; value = 4.29 z-score
Sequence = GACGGTATCGGTATCGGGGCGTGCTAG; value = 4.38 z-score
Sequence = GAGGGTTTCGGGACTGGGGACGTGCTA; value = 2.74 z-score
Sequence = GTGCTTCACAGAGGCGGCTGGTGCTAG; value = -0.689 z-score
Sequence = TGAGGTCTCGGACTGGGTTAGTGCTAG; value = -0.893 z-score
Sequence = GACGGTCTCGGTCTCGGGACGTGCTAG; value = 1.52 z-score
Sequence = GACGGTATTGACTATCGGGACGTGCTA; value = -0.137 z-score
Sequence = GACGATATCGGGTTTCGGGACGTGCTA; value = 1.72 z-score
Sequence = GACGATATCAGACTCGAGACGTGCTAG; value = 0.836 z-score
Sequence = TCACCTCTCTCTATTCAACTGTGCTAG; value = 1.2 z-score

Sample 4 — method: DHFR PCA, deep sequencing; medium: yeast; together with: (+)-ABA 0 µM; reference: wild-type fitted maximum; reading: higher = stronger binding; quantity: relative binding score
Target: ABI1, truncated, D143A, DHFR fusion (Arabidopsis thaliana)
Setting: methotrexate growth selection, single substitutions
Starting sequence: PYL1, truncated, DHFR fusion (Arabidopsis thaliana); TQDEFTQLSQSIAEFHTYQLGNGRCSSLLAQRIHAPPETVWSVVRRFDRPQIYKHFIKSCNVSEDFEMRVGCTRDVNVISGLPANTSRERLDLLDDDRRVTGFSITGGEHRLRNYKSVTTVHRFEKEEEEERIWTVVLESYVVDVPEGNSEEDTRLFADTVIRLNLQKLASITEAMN
Change = V76L; value = 6.71%
Change = S140H; value = 10.3%
Change = R45F; value = 1.48%
Change = E174V; value = 1.66%
Change = T154F; value = -19%
Change = E174P; value = 1.57%
Change = Y53E; value = 0.259%
Change = R132P; value = 38.9%
Change = M68H; value = 3.36%
Change = E4Q; value = 4.44%
Change = V143F; value = -7.53%
Change = F47A; value = 1.84%
Change = T160W; value = -2.2%
Change = V43T; value = 1.79%
Change = R98S; value = -1.99%
Change = F47H; value = -19.4%
Change = L93C; value = 3.16%
Change = V161P; value = 4.02%
Change = H110N; value = 49.1%
Change = F66V; value = 12.7%
Change = C25L; value = 3.36%
Change = R113H; value = 9.67%
Change = V145Y; value = -11.5%
Change = S104K; value = -2.77%
Change = L94Q; value = -2.85%
